Experimental data pooled from the literature.
Protocols differ between the studies behind these lines. Numbers after ± are the reported error.
Target: Delta-type opioid receptor (Oprd1, Rattus norvegicus, UniProt P33533)
Sequence of UniProt P33533 (whole entry, looked up): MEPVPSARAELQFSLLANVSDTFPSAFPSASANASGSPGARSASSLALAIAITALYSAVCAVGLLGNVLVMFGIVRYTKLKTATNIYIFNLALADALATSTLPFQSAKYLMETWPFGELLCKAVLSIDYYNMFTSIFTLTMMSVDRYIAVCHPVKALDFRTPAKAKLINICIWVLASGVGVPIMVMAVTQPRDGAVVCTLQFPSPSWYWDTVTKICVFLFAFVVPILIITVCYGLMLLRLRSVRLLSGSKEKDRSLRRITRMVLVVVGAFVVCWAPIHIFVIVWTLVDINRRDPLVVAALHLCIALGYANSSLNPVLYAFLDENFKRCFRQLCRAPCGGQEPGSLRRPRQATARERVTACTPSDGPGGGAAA

Cc1cc(O)cc(C)c1C[C@H](N)C(=O)N[C@@H]1CSCCSC(C)(C)[C@H](C(=O)O)NC(=O)C2(Cc3ccccc3C2)NC1=O gave a cAMP level of 91 ± 6% (forskolin-stimulated cAMP; C6-DOR; 10 µM; relative to: forskolin alone).
N[C@@H](Cc1ccc(C(=O)NCCc2cccc3ccccc23)cc1)C(=O)N1Cc2ccccc2C[C@H]1C(=O)N[C@@H](Cc1ccccc1)C(=O)N[C@@H](Cc1ccccc1)C(=O)O gave a selectivity ratio of 250 to 520 (binding, [3H]DSLET displacement; rat brain membranes; relative to: Ki mu over Ki delta).
For CC(=O)N1CCC(NC(=O)C(N)Cc2c(C)cc(O)cc2C)c2cc(CN3CCc4ccccc4C3)ccc21 (stereo not shown), the Ke was 4.6 nM (antagonist; 30 nM, with: DPDPE).
Cc1cc(O)cc(C)c1CC(N)C(=O)NC1CCNc2c(CN3CCOCC3)cc(Cc3ccccc3)cc21 (stereo not shown) has a maximal stimulation of 29% (GTPγS binding, agonist; C6 cells expressing DOR; relative to: DPDPE at 10 µM).
With CC(C)C[C@H](NC(=O)[C@H](Cc1ccc2ccccc2c1)NC(=O)CNC(=O)[C@H](NC(=O)[C@@H](N)Cc1ccc(O)cc1)[C@H](C)O)C(=O)N[C@@H](CO)C(N)=O the Emax was 196% (GTPγS binding, agonist, radiometric; cell membranes).
For Cc1cc(O)cc(C)c1C[C@H](N)C(=O)N1Cc2ccccc2C[C@H]1C(=O)NCC(=O)NCc1ccccc1, the inhibition was 28 ± 2% (forskolin-stimulated cAMP, agonist; C6-DOR; concentration not given).
Cc1cc(O)cc(C)c1C[C@H](N)C(=O)N[C@@H]1CCNc2ccc(Cc3ccccc3)cc21 has a maximal stimulation of 16% (GTPγS binding, agonist; C6 cells expressing DOR; relative to: DPDPE at 10 µM).
CC(C)C[C@H](NC(=O)[C@H](Cc1ccc2ccccc2c1)NC(=O)CNC(=O)[C@H](NC(=O)[C@@H](N)Cc1ccc(O)cc1)[C@H](C)O)C(=O)N[C@@H](CO[C@@H]1O[C@H](CO)[C@@H](O)[C@H](O)[C@H]1O)C(N)=O gave an Emax of 144% (GTPγS binding, agonist, radiometric; cell membranes).
With Cc1cc(O)cc(C)c1CC(N)C(=O)NC1CCNc2c1cc(Cc1ccccc1)cc2C(C)(C)C (stereo not shown) the maximal stimulation was 42% (GTPγS binding, agonist; C6 cells expressing DOR; relative to: DPDPE at 10 µM).
N[C@@H](Cc1ccc(C(=O)NCCc2ccc3ccccc3c2)cc1)C(=O)N1Cc2ccccc2C[C@H]1C(=O)N[C@@H](Cc1ccccc1)C(=O)N[C@@H](Cc1ccccc1)C(=O)O has a relative affinity of 5 to 8 fold (binding, [3H]DSLET displacement; rat brain membranes; relative to: DPDPE).

Some of these lines once more:
Cc1cc(O)cc(C)c1C[C@H](N)C(=O)N[C@@H]1CCNc2ccc(Cc3ccccc3)cc21 has a maximal stimulation of 16% (GTPγS binding, agonist; C6 cells expressing DOR; relative to: DPDPE at 10 µM).
CC(C)C[C@H](NC(=O)[C@H](Cc1ccc2ccccc2c1)NC(=O)CNC(=O)[C@H](NC(=O)[C@@H](N)Cc1ccc(O)cc1)[C@H](C)O)C(=O)N[C@@H](CO[C@@H]1O[C@H](CO)[C@@H](O)[C@H](O)[C@H]1O)C(N)=O gave an Emax of 144% (GTPγS binding, agonist, radiometric; cell membranes).
